Published values from different studies.
Compare with care: the assays were run in different laboratories.
MARK3: MAP/microtubule affinity-regulating kinase 3 (MARK3, Homo sapiens, UniProt P27448)
Sequence of UniProt P27448 (whole entry, looked up): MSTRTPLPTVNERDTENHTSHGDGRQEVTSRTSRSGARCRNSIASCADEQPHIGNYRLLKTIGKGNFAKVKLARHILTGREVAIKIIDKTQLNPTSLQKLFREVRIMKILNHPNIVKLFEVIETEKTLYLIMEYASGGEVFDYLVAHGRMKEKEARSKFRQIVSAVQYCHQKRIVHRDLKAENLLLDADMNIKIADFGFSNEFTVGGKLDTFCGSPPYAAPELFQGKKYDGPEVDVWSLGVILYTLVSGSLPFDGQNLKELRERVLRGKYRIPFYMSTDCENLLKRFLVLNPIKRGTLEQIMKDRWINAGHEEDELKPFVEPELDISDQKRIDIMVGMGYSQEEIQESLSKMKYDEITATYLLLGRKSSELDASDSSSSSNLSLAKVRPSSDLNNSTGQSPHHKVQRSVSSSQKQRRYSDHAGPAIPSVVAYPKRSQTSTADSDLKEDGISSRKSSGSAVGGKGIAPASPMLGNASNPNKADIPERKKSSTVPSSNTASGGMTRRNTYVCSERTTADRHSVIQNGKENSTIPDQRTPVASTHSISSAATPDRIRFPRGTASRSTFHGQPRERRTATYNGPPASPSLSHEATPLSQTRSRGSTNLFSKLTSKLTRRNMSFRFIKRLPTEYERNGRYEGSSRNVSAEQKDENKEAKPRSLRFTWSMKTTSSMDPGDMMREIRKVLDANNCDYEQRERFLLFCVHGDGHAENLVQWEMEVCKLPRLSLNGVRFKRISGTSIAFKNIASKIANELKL
Sequence of UniProt Q13470 (whole entry, looked up): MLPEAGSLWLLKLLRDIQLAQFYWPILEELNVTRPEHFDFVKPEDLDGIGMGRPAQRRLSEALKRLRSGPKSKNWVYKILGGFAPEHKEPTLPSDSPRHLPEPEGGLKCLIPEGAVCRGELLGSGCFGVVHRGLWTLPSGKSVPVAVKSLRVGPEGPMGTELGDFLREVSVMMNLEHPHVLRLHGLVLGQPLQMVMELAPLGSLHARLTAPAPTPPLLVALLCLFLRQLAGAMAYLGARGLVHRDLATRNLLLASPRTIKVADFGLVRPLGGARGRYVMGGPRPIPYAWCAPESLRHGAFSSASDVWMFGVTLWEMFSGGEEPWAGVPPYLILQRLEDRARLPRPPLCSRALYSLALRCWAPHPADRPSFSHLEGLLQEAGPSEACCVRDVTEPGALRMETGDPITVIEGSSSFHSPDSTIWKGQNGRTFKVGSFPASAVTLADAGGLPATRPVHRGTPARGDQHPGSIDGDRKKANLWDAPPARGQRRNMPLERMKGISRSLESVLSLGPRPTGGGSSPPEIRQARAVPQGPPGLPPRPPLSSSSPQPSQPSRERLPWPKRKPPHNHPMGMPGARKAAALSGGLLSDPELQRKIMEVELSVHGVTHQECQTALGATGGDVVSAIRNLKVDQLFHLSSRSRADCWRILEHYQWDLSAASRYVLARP
Sequence of UniProt Q8TDC3 (whole entry, looked up): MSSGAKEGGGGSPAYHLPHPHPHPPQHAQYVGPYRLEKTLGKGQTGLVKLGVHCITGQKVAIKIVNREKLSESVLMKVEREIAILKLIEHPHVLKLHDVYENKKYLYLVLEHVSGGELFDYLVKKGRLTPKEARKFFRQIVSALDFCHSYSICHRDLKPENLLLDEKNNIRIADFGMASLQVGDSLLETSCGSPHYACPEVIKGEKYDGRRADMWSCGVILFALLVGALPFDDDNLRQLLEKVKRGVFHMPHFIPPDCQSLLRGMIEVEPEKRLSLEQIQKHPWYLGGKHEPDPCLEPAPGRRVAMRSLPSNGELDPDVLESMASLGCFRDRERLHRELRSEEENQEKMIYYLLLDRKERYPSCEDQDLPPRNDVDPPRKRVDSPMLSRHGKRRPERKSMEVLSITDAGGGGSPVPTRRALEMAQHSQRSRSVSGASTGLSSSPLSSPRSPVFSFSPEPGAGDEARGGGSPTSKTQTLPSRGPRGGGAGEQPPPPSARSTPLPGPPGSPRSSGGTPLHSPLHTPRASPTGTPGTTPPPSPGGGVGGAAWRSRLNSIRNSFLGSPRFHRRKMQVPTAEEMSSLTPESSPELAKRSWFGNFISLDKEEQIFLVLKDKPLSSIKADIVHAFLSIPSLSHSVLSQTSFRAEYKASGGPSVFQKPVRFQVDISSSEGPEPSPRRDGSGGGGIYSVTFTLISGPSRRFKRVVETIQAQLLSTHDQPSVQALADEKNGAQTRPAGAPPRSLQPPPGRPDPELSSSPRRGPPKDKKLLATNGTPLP
Sequence of UniProt Q06418 (whole entry, looked up): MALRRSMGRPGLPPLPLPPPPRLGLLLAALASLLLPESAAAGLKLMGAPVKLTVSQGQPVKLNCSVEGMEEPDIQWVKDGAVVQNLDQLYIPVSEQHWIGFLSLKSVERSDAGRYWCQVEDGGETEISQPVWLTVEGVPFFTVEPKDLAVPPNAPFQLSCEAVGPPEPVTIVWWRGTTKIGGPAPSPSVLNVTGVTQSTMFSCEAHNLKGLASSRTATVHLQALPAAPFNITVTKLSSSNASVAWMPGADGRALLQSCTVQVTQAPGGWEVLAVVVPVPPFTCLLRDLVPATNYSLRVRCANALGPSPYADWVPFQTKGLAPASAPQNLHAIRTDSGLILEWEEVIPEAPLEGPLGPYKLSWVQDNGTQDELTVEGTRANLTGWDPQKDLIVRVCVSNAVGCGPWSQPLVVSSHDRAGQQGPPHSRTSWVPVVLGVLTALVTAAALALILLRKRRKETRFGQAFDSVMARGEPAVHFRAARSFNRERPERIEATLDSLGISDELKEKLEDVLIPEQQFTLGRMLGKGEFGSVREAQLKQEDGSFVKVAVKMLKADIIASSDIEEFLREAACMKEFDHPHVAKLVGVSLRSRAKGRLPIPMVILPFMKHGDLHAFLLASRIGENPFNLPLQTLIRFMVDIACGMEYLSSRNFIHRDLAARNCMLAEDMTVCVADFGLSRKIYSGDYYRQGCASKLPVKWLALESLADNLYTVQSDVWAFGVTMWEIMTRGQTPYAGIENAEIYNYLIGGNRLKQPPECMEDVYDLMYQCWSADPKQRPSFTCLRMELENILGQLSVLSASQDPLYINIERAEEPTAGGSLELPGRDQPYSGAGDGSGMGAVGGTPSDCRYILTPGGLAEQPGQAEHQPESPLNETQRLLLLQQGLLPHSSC
Sequence of UniProt Q01959 (whole entry, unmodified, looked up): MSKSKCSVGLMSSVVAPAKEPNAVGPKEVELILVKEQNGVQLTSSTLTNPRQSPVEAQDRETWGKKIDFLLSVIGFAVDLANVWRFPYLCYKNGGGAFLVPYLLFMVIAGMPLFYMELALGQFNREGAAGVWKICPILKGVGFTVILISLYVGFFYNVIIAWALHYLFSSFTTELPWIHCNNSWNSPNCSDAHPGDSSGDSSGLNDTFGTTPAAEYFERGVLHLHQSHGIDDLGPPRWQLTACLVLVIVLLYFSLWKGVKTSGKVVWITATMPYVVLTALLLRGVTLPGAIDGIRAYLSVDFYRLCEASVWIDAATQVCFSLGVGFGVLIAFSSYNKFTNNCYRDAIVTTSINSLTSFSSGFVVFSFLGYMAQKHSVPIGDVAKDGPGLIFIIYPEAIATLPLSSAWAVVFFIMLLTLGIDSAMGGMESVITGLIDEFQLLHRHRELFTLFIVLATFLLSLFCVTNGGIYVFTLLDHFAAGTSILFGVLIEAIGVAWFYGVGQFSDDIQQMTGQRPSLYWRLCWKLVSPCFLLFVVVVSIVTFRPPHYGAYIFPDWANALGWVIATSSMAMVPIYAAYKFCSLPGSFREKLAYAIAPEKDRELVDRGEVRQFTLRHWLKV
Sequence of UniProt P24723 (whole entry, looked up): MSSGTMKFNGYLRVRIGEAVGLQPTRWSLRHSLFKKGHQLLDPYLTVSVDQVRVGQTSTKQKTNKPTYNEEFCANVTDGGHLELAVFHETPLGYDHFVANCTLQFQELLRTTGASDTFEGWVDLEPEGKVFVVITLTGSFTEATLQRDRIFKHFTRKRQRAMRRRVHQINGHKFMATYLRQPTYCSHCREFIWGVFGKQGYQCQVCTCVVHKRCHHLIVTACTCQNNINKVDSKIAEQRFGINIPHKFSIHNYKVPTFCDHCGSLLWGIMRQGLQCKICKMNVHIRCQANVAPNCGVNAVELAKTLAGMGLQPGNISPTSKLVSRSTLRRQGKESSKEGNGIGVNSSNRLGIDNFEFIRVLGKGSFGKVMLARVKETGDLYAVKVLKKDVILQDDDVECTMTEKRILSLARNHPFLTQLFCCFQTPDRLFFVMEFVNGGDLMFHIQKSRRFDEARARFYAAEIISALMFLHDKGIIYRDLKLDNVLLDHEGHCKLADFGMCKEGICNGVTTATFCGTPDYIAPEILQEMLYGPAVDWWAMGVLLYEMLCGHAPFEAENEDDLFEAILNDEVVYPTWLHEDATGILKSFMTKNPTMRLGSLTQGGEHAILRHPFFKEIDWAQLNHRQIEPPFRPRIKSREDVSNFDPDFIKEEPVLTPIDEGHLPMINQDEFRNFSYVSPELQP

`COc1cc(-c2cncc3c2CN(C)Cc2cc(N4CCNCC4)ccc2-3)cc(OC)c1OC` gave a remaining activity of 102% (TYRO3 (Homo sapiens, UniProt Q06418); kinase activity; 1 µM, human enzyme, together with: ATP 10 µM; relative to: DMSO control).
`COc1cc(F)ccc1-c1ncnc(Nc2cccc(C[S@](C)(=N)=O)c2)n1` gave a remaining activity of 95% (Insulin receptor (INSR, Homo sapiens, UniProt P06213); kinase activity; 10 µM, together with: 10 µM ATP).
The remaining activity of `CNc1ncc2c(/C=C/C(=O)N3CCC(OC)CC3)nn(Cc3cccc(C(F)(F)F)c3)c2n1` is reported as 96% (BRSK1 (Homo sapiens, UniProt Q8TDC3); kinase activity, inhibitor; 1 µM; relative to: untreated control).
With `N[C@@H]1CC[C@@H](c2ccc(Cl)c(Cl)c2)c2ccccc21` the remaining activity was 40.8% (SLC6A3 (Homo sapiens, UniProt Q01959, F326A); dopamine uptake; 0.004 µM, 0.03333 h, F326A mutant, together with: [3H]dopamine; relative to: no inhibitor).
The remaining activity of `COc1cc(N2CCN(C)CC2)ccc1Nc1nc(N)n(C(=O)NCc2c(Cl)cccc2Cl)n1` is reported as 2.5% (MARK3; enzyme activity; 10 µM; relative to: control).
The remaining activity of `Cc1cc(Nc2cc(N3CCN(C)CC3)nc(Sc3ccc(NC(=O)C4CC4)cc3)n2)[nH]n1` is reported as 93% (EPHB4 (Homo sapiens, UniProt P54760); kinase activity, KinaseProfiler; 0.03 µM, species human; relative to: control).
With `COc1cc(N2CCN(C)CC2)ccc1Nc1nc(N)n(C(=S)NCc2c(Cl)cccc2Cl)n1` the remaining activity was 16% (PRKCH (Homo sapiens, UniProt P24723); enzyme activity; 10 µM; relative to: control).
`COc1cc(Nc2ncc3c(n2)-c2ccc(Cl)cc2C(c2c(F)cccc2OC)=NC3)ccc1C(=O)O` gave a remaining activity of 83% (PRKCD; kinase activity; 1 µM).
For `O=C1NC(=O)/C(=C/c2ccc(-c3ccc(F)cc3O)o2)S1`, the remaining activity was 67% (MARK3; enzyme activity; 10 µM).
For `C=CC(=O)N1CCC[C@@H](n2nc(-c3ccc(Oc4ccccc4)cc3)c3c(N)ncnc32)C1`, the remaining activity was 209% (TNK1 (Homo sapiens, UniProt Q13470); 0.1 µM).
For `O=C(O)c1ccc(Nc2ncc3c(n2)-c2ccc(Cl)cc2C(c2c(F)cccc2F)=NC3)cc1`, the remaining activity was 56% (Rse(h); kinase activity; 1 µM).
`O=C(NC1CCC1)c1ccc2nc(-c3cccc(NS(=O)(=O)NCCN4CCCCC4)c3)cn2c1` has a remaining activity of 94% (HUNK (Homo sapiens, UniProt P57058); enzyme activity; 10 µM).
